Measurements collected from several papers.
Parts stem from different laboratories: compare values within a part only.
Chain of UniProt Q8NEB9 (whole entry, looked up): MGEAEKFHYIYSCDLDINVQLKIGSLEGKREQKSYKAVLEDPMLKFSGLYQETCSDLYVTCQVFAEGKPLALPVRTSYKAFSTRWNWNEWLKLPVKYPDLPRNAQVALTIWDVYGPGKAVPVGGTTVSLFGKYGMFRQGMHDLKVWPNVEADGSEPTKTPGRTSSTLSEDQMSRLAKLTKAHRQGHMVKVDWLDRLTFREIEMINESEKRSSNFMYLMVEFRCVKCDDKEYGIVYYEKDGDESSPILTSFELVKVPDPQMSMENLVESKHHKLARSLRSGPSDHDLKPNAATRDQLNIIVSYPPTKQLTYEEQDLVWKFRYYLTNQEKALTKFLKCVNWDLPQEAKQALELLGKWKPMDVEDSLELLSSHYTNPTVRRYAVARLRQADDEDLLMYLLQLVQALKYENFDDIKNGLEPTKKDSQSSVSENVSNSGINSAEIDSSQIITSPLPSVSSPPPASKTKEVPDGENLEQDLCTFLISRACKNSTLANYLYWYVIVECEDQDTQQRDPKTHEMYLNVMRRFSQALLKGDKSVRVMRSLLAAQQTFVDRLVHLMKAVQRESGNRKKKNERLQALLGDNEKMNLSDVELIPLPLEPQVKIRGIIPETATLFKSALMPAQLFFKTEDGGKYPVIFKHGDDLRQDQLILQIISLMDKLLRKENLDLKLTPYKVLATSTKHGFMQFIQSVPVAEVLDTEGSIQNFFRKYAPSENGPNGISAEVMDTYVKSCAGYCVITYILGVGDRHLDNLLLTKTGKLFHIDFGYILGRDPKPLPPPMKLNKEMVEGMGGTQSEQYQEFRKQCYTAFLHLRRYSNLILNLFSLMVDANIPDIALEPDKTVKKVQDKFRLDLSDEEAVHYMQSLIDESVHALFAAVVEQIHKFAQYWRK
Chain of UniProt P48736 (whole entry, looked up): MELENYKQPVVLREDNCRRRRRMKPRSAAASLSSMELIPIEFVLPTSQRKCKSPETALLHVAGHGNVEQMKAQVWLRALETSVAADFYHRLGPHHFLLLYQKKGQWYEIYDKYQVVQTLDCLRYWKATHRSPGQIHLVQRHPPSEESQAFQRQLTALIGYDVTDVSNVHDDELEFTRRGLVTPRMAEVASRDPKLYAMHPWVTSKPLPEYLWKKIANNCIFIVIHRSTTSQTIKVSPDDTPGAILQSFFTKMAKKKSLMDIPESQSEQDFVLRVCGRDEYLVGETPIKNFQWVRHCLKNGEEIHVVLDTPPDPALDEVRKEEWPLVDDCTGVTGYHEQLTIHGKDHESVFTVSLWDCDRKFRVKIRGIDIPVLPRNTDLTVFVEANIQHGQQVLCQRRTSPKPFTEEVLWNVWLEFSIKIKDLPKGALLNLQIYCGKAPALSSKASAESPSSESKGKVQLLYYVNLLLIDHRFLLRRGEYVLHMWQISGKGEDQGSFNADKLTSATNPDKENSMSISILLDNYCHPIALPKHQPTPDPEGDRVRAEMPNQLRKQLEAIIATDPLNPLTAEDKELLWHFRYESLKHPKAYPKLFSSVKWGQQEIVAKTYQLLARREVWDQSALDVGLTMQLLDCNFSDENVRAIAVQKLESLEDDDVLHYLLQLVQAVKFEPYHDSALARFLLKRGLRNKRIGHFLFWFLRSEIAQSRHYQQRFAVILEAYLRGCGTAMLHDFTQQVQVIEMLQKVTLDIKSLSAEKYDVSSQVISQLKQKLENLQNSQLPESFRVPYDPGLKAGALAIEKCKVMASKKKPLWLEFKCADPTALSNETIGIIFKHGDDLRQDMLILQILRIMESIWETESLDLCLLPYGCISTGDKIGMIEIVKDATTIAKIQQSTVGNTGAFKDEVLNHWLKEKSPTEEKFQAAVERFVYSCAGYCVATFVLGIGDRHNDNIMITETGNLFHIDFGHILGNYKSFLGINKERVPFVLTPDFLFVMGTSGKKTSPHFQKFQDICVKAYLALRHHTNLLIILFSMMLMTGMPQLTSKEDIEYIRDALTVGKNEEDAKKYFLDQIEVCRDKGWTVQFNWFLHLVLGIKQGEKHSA
Chain of UniProt Q9UPE1 (whole entry, looked up): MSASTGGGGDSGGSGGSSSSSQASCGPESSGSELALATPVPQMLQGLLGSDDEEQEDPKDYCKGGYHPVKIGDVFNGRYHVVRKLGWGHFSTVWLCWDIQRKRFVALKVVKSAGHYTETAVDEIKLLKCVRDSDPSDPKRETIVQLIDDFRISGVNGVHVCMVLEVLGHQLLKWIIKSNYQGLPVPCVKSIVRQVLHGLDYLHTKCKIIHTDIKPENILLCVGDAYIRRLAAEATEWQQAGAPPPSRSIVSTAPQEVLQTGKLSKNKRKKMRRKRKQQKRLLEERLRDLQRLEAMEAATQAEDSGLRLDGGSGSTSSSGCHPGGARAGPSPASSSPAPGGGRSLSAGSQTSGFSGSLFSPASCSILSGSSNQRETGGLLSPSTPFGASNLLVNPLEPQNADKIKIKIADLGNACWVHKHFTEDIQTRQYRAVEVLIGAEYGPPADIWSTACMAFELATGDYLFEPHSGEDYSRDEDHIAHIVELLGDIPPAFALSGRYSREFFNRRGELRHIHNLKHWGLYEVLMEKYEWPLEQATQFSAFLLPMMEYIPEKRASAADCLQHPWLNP
Chain of UniProt Q99759 (whole entry, looked up): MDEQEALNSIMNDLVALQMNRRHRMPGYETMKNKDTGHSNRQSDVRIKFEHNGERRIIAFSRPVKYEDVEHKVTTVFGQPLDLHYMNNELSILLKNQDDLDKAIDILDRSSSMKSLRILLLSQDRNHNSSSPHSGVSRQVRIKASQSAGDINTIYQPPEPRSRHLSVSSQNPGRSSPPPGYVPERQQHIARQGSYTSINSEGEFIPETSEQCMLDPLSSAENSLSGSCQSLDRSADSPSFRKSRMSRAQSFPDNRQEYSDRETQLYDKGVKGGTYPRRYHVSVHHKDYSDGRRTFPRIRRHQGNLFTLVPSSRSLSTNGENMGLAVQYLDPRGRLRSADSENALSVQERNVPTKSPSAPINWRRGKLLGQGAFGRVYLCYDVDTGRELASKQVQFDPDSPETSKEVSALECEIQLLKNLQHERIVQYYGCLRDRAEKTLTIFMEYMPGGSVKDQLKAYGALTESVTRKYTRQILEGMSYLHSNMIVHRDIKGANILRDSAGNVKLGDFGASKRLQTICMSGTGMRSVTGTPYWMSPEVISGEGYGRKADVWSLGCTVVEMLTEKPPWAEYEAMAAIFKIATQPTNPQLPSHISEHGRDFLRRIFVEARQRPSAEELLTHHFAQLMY
Chain of UniProt P11362 (whole entry, looked up): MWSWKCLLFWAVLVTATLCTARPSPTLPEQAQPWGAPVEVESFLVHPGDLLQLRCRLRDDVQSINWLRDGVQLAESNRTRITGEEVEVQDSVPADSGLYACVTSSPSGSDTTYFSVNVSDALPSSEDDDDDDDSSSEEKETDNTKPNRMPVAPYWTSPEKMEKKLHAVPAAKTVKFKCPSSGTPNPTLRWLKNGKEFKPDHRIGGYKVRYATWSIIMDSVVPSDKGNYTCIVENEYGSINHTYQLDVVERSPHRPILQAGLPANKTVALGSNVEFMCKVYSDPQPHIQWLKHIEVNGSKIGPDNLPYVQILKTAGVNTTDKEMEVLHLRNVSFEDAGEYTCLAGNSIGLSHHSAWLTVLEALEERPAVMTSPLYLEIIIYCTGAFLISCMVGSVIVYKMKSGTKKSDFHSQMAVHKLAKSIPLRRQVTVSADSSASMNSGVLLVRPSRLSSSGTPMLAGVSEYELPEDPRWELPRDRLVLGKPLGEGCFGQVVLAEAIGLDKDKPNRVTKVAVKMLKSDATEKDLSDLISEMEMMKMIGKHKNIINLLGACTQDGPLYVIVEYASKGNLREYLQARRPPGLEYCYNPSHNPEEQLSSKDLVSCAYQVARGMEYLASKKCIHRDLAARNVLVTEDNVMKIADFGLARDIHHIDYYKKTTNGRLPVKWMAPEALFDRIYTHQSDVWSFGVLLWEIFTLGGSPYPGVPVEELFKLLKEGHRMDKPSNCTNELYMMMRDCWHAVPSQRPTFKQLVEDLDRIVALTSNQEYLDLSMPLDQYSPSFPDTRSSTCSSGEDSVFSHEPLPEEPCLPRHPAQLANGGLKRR
Chain of UniProt Q8IU85 (whole entry, looked up): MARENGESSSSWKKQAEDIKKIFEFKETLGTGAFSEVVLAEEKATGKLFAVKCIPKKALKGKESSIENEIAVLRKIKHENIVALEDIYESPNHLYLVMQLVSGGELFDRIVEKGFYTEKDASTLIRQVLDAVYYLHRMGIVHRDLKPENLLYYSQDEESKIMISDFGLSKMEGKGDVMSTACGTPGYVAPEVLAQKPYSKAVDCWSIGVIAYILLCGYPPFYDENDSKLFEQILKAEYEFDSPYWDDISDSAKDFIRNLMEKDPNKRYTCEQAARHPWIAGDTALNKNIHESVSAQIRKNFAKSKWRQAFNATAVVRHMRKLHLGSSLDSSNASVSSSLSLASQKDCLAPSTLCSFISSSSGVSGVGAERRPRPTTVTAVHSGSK
Chain of UniProt Q86YV6 (whole entry, looked up): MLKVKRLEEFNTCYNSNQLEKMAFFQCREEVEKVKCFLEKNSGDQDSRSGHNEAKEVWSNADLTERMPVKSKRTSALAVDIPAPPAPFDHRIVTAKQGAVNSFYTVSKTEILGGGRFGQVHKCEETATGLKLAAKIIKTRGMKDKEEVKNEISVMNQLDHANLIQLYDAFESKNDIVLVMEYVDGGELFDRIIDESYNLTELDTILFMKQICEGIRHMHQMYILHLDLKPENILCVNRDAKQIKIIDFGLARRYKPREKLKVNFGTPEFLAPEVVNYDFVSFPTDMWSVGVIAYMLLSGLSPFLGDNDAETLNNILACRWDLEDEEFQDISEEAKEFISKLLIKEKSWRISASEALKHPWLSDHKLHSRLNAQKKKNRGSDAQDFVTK

Study 1
SMILES: COc1ccc2[nH]c3c4[nH]c5ccc(OC)cc5c4c4c(c3c2c1)C(=O)NC4=O
Tested at: 1 µM
For TAOK2 (Homo sapiens, UniProt Q9UL54); competitive binding panel; reference: vehicle: remaining binding read 96%.
It gave 87% for remaining binding (PIK3CG (Homo sapiens, UniProt P48736); competitive binding panel; reference: vehicle).
SRPK3 (Homo sapiens, UniProt Q9UPE1); competitive binding panel; reference: vehicle — remaining binding: 100%.
The remaining binding was 54% (PRKAA2 (Homo sapiens, UniProt P54646); competitive binding; AMPK-alpha2).
For MKNK2 (Homo sapiens, UniProt Q9HBH9); competitive binding panel; reference: vehicle: remaining binding read 54%.
The remaining binding was 64% (CAMK1D (Homo sapiens, UniProt Q8IU85); competitive binding panel; reference: vehicle).
For LATS2 (Homo sapiens, UniProt Q9NRM7); competitive binding panel; reference: vehicle: remaining binding read 43%.
It gave 76% for remaining binding (PIK3C2G (Homo sapiens, UniProt O75747); competitive binding panel; reference: vehicle).
For DDR1 (Homo sapiens, UniProt Q08345); competitive binding panel; reference: vehicle: remaining binding read 77%.
FGFR3 (Homo sapiens, UniProt P22607, G697C); competitive binding panel; reference: vehicle — remaining binding: 100%.
The remaining binding was 49% (MYLK4 (Homo sapiens, UniProt Q86YV6); competitive binding panel; reference: vehicle).

Study 2
SMILES: C=CC(=O)N1CCC([C@@H]2CCNc3c(C(N)=O)c(-c4ccc(Oc5ccccc5)cc4)nn32)CC1
Tested at: 1 µM
It gave 0% for inhibition (CDK13 (Homo sapiens, UniProt Q14004); enzyme activity, inhibitor).
It gave 0% for inhibition (BMPR2 (Homo sapiens, UniProt Q13873); cell-free assay).
For BMP2K (Homo sapiens, UniProt Q9NSY1); enzyme activity, inhibitor: inhibition read 29%.
It gave 14% for inhibition (MAP3K3 (Homo sapiens, UniProt Q99759); enzyme activity, inhibitor).
For PIK3C3 (Homo sapiens, UniProt Q8NEB9); enzyme activity, inhibitor: inhibition read 0%.
CAMK2B (Homo sapiens, UniProt Q13554); enzyme activity, inhibitor — inhibition: 0%.
The inhibition was 97% (CDPK1 (Plasmodium falciparum, UniProt P62344); enzyme activity, inhibitor).

Study 3
SMILES: O=C(NCc1ncc(C(F)(F)F)cc1Cl)c1ccc2c(c1)C1(CCS(=O)(=O)CC1)[C@H](C1CC1)N2S(=O)(=O)c1ccc(F)cc1
Observed: cell-free assay
Method: competition with immobilised ligand
Tested at: 1 µM
The remaining binding was 64% (RPS6KB1 (Homo sapiens, UniProt P23443)).
The remaining binding was 69% (MAP2K5 (Homo sapiens, UniProt Q13163)).
For FGFR1 (Homo sapiens, UniProt P11362): remaining binding read 49%.
It gave 70% for remaining binding (PKN2 (Homo sapiens, UniProt Q16513)).
For EGFR (Homo sapiens, UniProt P00533, del746-750): remaining binding read 97%.
Ribosomal protein S6 kinase alpha-5, N-terminal kinase domain (RPS6KA5, Homo sapiens, UniProt O75582) — remaining binding: 95%.
It gave 85% for remaining binding (ULK3 (Homo sapiens, UniProt Q6PHR2)).
For Ribosomal protein S6 kinase alpha-3, N-terminal kinase domain (RPS6KA3, Homo sapiens, UniProt P51812): remaining binding read 70%.
It gave 76% for remaining binding (PIK3CA (Homo sapiens, UniProt P42336, Q546K)).

Study 4
Target: G protein-coupled receptor kinase 3 (GRK3, Homo sapiens, UniProt P35626)
Observed: enzyme activity
Action: inhibitor
Tested at: 0.5 µM
Reference: control
Residues (P35626 1-688): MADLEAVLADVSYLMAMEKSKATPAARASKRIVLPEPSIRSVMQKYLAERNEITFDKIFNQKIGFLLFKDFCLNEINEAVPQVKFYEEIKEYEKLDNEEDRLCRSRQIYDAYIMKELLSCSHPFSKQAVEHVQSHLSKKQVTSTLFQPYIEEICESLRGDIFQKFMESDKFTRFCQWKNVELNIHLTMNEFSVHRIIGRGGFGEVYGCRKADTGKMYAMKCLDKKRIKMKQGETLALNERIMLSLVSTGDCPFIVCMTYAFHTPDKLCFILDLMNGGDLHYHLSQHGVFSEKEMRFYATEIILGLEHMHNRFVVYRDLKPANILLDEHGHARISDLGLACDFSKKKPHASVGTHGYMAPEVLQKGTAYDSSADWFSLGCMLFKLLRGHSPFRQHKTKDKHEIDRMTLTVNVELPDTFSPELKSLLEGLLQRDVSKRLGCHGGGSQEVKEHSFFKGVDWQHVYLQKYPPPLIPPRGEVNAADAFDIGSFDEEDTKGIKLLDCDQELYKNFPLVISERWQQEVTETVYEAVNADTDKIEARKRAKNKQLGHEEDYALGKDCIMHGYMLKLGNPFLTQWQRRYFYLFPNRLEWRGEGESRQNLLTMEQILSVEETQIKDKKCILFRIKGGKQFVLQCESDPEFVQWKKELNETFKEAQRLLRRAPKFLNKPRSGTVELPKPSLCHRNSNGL
For `Cn1sc(=O)n(Cc2ccccc2)c1=O`, the remaining activity was 99.6%.
The remaining activity of `Nc1[nH]nc2nc3ccccc3nc12` is reported as 92.4%.
`Cn1c2ccccc2c2c3c(c4c5ccccc5n(CCC#N)c4c21)CNC3=O` has a remaining activity of 106%.
The remaining activity of `CC(C)[C@H](CO)Nc1nc(Nc2cc(N)cc(Cl)c2)c2ncn(C(C)C)c2n1` is reported as 97.1%.
`COc1cc2nccc(Oc3ccc(NC(=S)NC(=O)c4ccccc4C)cc3)c2cc1OC` gave a remaining activity of 94.9%.
`Cc1ccc(Nc2nccc(N(C)c3ccc4c(C)n(C)nc4c3)n2)cc1S(N)(=O)=O` gave a remaining activity of 99.3%.
`Nc1ccc2ncnc(NCCc3ccc(Oc4ccccc4)cc3)c2c1` has a remaining activity of 97.9%.
For `CNC(=O)c1cc(Oc2ccc(NC(=O)Nc3ccc(Cl)c(C(F)(F)F)c3)cc2)ccn1`, the remaining activity was 98.4%.
`Cc1cccc(-c2[nH]c(C(C)(C)C)nc2-c2ccc3c(c2)OCO3)n1` has a remaining activity of 96.3%.
`N#CC(C#N)=C(N)/C(C#N)=C/c1ccc(O)cc1` gave a remaining activity of 96.7%.
With `COc1cc2ncnc(Nc3ccc(Oc4ccccc4)cc3)c2cc1OC` the remaining activity was 91.8%.
With `Oc1ccc(-c2nc(-c3ccncc3)c(-c3ccc(F)cc3)[nH]2)cc1` the remaining activity was 99.3%.
For `COc1ccc(C(=O)Nc2sc3c(c2C(N)=O)CCCC3)cc1OC`, the remaining activity was 103%.
For `NCCNc1ncc(C(N)=O)c(Nc2cccc(C(F)(F)F)c2)n1`, the remaining activity was 90.3%.
The remaining activity of `O=c1c2ccccc2[nH]c(=S)n1CCN1CCC(=C(c2ccc(F)cc2)c2ccc(F)cc2)CC1` is reported as 102%.
`O=C1NC(=O)C(c2cn(CCCO)c3ncccc23)=C1c1cnccn1` gave a remaining activity of 99.9%.

For quick reference, copied from above (study 4):
For `Cn1sc(=O)n(Cc2ccccc2)c1=O`, the remaining activity was 99.6%.
The remaining activity of `Nc1[nH]nc2nc3ccccc3nc12` is reported as 92.4%.
`Cn1c2ccccc2c2c3c(c4c5ccccc5n(CCC#N)c4c21)CNC3=O` has a remaining activity of 106%.
The remaining activity of `CC(C)[C@H](CO)Nc1nc(Nc2cc(N)cc(Cl)c2)c2ncn(C(C)C)c2n1` is reported as 97.1%.
`COc1cc2nccc(Oc3ccc(NC(=S)NC(=O)c4ccccc4C)cc3)c2cc1OC` gave a remaining activity of 94.9%.
`Cc1ccc(Nc2nccc(N(C)c3ccc4c(C)n(C)nc4c3)n2)cc1S(N)(=O)=O` gave a remaining activity of 99.3%.
